{"data": "Experimental data of several laboratories", "note": "Numbered parts are unrelated; each lists some results of a single study."}
{"data": "Set 1", "target": "Histone acetyltransferase KAT6A, winged helix 2, GST fusion (KAT6A, Homo sapiens, UniProt Q92794, residues 85-181)", "method": "protein binding microarray", "molecule type": "double-stranded DNA, one strand shown", "sample": "in vitro", "tested at": "not given", "notes": "8-mer, flanks averaged, mean of 2 arrays, mostly near background", "baseline": "not given", "direction": "higher = stronger binding", "Target sequence (chain)": "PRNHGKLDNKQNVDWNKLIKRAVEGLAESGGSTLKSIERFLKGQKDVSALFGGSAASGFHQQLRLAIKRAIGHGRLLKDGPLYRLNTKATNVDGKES"}
{"Strand": "CGGAATAA", "E-score": 0.0559}
{"Strand": "TAGGGCCA", "E-score": -0.0187}
{"Strand": "AGGACTAT", "E-score": -0.202}
{"data": "Set 2", "target": "Sal-like protein 4, full length isoform A (SALL4, Homo sapiens, UniProt Q9UJQ4, residues 1-1053)", "method": "universal PBM", "molecule type": "double-stranded DNA, one strand shown", "sample": "in vitro", "tested at": "600 nM", "notes": "8-mer, flanks averaged, mean of replicates", "direction": "higher = stronger binding", "chain of UniProt Q9UJQ4 (whole entry, looked up)": "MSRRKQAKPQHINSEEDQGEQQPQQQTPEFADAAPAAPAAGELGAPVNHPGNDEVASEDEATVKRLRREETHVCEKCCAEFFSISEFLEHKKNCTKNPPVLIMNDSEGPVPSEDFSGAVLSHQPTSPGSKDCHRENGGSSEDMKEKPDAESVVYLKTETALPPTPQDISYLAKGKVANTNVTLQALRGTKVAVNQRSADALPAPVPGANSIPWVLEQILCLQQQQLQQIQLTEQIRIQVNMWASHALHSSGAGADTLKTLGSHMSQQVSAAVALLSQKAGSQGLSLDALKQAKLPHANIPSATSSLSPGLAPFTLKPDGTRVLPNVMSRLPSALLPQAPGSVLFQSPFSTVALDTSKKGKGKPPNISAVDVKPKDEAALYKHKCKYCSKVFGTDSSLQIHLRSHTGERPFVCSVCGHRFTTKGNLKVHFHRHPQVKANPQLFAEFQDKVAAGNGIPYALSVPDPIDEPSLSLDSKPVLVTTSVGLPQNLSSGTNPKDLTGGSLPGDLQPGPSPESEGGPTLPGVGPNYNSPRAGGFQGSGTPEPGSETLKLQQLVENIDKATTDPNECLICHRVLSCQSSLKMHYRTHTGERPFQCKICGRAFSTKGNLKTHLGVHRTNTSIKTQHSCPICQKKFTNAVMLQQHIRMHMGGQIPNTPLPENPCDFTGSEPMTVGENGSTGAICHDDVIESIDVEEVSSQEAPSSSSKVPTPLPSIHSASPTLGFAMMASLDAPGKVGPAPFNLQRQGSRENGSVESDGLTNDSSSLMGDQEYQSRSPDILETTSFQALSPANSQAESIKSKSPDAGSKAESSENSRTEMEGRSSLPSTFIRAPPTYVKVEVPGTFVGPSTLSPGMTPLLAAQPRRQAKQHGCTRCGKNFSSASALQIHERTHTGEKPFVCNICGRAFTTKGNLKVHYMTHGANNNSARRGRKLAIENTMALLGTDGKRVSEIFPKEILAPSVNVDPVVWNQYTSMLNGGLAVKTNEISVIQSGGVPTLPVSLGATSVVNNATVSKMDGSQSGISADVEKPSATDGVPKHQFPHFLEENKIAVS"}
{"Strand": "CAAATGTG", "E-score": 0.164}
{"Strand": "CCGAACAG", "E-score": -0.14}
{"Strand": "ACTGCTCC", "E-score": -0.226}
{"Strand": "TATCATGA", "E-score": 0.243}
{"data": "Set 3", "target": "Max dimerization protein 1, bHLH-zipper, MAX partner unstated (MXD1, Homo sapiens, UniProt Q05195, residues 56-136)", "method": "protein-binding microarray", "molecule type": "double-stranded DNA, one strand shown", "sample": "in vitro", "tested at": "not given", "notes": "k-mer, scored over probes, only values ≥0.25", "direction": "higher = stronger binding", "Residues (chain)": "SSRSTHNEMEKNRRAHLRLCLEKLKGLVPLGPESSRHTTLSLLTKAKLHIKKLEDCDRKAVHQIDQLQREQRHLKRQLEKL"}
{"Strand": "CATCACGC", "E-score": 0.254}
{"Strand": "CATGGACA", "E-score": 0.279}
{"Strand": "AACGTGAG", "E-score": 0.266}
{"data": "Single results of other studies"}
{"Molecule": "PhoQ, residues 284 288 289 292 302 303 SMYGEC", "target": "PhoP, residues 12 14 15 18 19 LHSVW (Escherichia coli, UniProt P23836)", "assay": "Sort-seq, refers to: YFP reporter", "system": "E. coli", "setting": "PhoQ-PhoP variant library, with: 10 µM Mg2+", "scale": "baseline: high Mg2+ state, higher = stronger signaling", "measurement": "fold induction", "value": 11.6}
